Experimental data from different studies.
Numbers after ± are the reported error.

Molecule	assay	system	conditions	scale	endpoint	result
CC(C)Nc1nc(Cl)nc(NC(C)C)n1	LC-MS/MS	herbicide solution	2 h, 40 °C, together with: 254 nm UV exposure	–	remaining amount	19.1 ± 12.4%
CC[C@H](C)[C@@H]1NC(=O)[C@@H](Cc2ccccc2)OC(=O)CNC(=O)[C@H]([C@@H](C)CC)NC(=O)[C@@H](Cc2ccccc2)OC(=O)CNC1=O	–	human plasma	2 h, 37 °C	–	remaining compound	82%
CC[C@H](C)[C@H](NC(=O)[C@@H](NC(=O)[C@H](CCC(=O)O)NC(=O)[C@@H]1CCCN1C(=O)[C@H](CO)NC(=O)[C@H](Cc1ccccc1)NC(=O)[C@H](C)NC(=O)[C@@H](N)CCCCN)C(C)C)C(=O)N1CCC[C@H]1C(=O)N[C@@H](CCSC)C(=O)N[C@@H](Cc1ccccc1)C(=O)O	–	cytosolic extract	1 nmol, 10 min, pH 7.4, 37 °C	baseline: time 0	remaining epitope	60%
CC(C)OC(=O)[C@H](CCC(=O)C=[N+]=[N-])NC(=O)OC(OC(=O)C(C)(C)C)C(C)C (mixture of isomers)	–	mouse plasma	10 µM, 60 min, 37 °C	–	remaining compound	0%
CCc1cccc(CC)c1N(COC)C(=O)CCl	LC-MS/MS	herbicide solution	2 h, 40 °C, together with: 254 nm UV exposure	–	remaining amount	2.33 ± 0.01%
CC[C@H](C)[C@H](NC(=O)[C@H](CC(C)C)NC(=O)[C@H](Cc1ccccc1)NC(=O)[C@H](CCCCN)NC(=O)[C@H](CC(N)=O)NC(=O)[C@H](CC(C)C)NC(=O)[C@@H](NC(=O)[C@H](Cc1c[nH]cn1)NC(=O)[C@H](CC(=O)O)NC(=O)[C@@H](NC(=O)[C@H](CO)NC(=O)[C@H](CO)NC(=O)[C@H](Cc1ccc(O)cc1)NC(=O)[C@@H](N)CCSC)[C@@H](C)O)[C@@H](C)CC)C(=O)N[C@@H](CC(C)C)C(=O)N[C@@H](Cc1c[nH]cn1)C(=O)N[C@@H](Cc1ccc(O)cc1)C(=O)N[C@@H](C)C(=O)N[C@@H](CC(C)C)C(=O)N[C@@H](CC(N)=O)C(=O)N1CCC[C@H]1C(=O)N[C@H](C(N)=O)[C@@H](C)O	HPLC and LC-MS	25% human serum in DMEM	100 µM, 5 h, 37 °C, 2.5% DMSO	–	remaining intact compound	~70%
CCOCN(C(=O)CCl)c1c(C)cccc1CC	LC-MS/MS	herbicide solution	2 h, 40 °C, together with: 254 nm UV exposure	–	remaining amount	20.3 ± 5.95%
Dendroaspis natriuretic peptide	cGMP elevation	human kidney membranes	concentration not given, 2 h, 37 °C	–	remaining activity	46%
CCc1cccc(C)c1N(C(=O)CCl)C(C)COC (stereo not shown)	LC-MS/MS	herbicide solution	2 h, 4 °C, together with: 365 nm UV exposure	–	remaining amount	35.4 ± 17.7%
COP(=O)(CC/C=C(\C)CO)OCOC(=O)c1ccc(/N=N/c2ccc(N(C)C)cc2)cc1 (stereo not shown)	–	human plasma 50% in PBS	100 µM, 24 h, pH 7.5	–	remaining compound	7.5 ± 0.7%
CC(C)C(=O)OC[C@H]1O[C@@H](n2ccc(NO)nc2=O)[C@H](O)[C@@H]1O	–	rat brain dialysate	250 ng/mL, 4 weeks, -20 °C, long-term storage, together with: NHC 1000 ng/mL	–	remaining compound	99.17 ± 0.69%
CC[C@H](C)[C@@H]1NC(=O)[C@@H]2CSSC[C@H](NC(=O)[C@@H](NC(=O)CN)[C@@H](C)O)C(=O)N[C@@H](CC(N)=O)C(=O)N[C@@H]([C@@H](C)O)C(=O)N3CCC[C@H]3C(=O)NCC(=O)N[C@H]3CSSC[C@H](NC(=O)[C@H](CCSC)NC(=O)[C@H](CC(C)C)NC(=O)[C@H](CCCNC(=N)N)NC(=O)CNC(=O)CNC(=O)[C@H](CC(=O)O)NC1=O)C(=O)NCC(=O)N[C@@H](CCC(=O)O)C(=O)N[C@@H]([C@@H](C)O)C(=O)N[C@H](C(=O)N[C@H](C(=O)NCC(=O)O)C(C)C)CSSC[C@H](NC(=O)[C@H]([C@@H](C)O)NC3=O)C(=O)N[C@@H](CO)C(=O)N[C@@H](Cc1c[nH]c3ccccc13)C(=O)N1CCC[C@H]1C(=O)N[C@@H](C(C)C)C(=O)N2	LC-MS	trypsin in buffer	2 h, 37 °C, together with: trypsin 10 µg/mL	–	remaining intact peptide	80%
CC[C@H](C)[C@@H]1NC(=O)[C@@H]2CSSC[C@H](NC(=O)[C@H](Cc3ccccc3)NC(=O)[C@@H](NC(=O)[C@@H](CO)NC(=O)[C@@H](Cc3ccccc3)NC(=O)[C@@H](CC(C)C)NC(=O)[C@@H]3CCCN3C(=O)[C@@H](CC(C)C)NC(=O)[C@@H](Cc3ccccc3)NC(=O)[C@@H](CCC(=O)O)NC(=O)[C@@H](C)NC(=O)[C@@H](Cc3ccccc3)NC(=O)[C@H](N)C(C)C)CSSC[C@@H](C(=O)N[C@@H](CC(C)C)C(=O)N[C@@H](CC(N)=O)C(N)=O)NC1=O)C(=O)N[C@@H]([C@@H](C)O)C(=O)N[C@@H](CCCNC(=N)N)C(=O)N[C@@H](CCSC)C(=O)N[C@@H](CO)C(=O)N1CCC[C@H]1C(=O)N1CCC[C@H]1C(=O)N[C@@H](CCC(N)=O)C(=O)N2	–	chymotrypsin digestion	20 h, pH 8.0, 25 °C, together with: 1 M guanidine HCl	–	remaining intact peptide	95%
Cc1cc2c(C(C)C)c(O)c(O)c(C=O)c2c(O)c1-c1c(C)cc2c(C(C)C)c(O)c(O)c(C=O)c2c1O	–	acetonitrile extract of human plasma	0.896 µg/mL, 24 h, 4 °C, autosampler	–	remaining concentration	97.3%
CCNc1nc(Cl)nc(NCC)n1	LC-MS/MS	herbicide solution	2 h, 4 °C, together with: 365 nm UV exposure	–	remaining amount	38.7 ± 15%
CC[C@@H](C)[C@@H]1NC(=O)[C@@H](Cc2ccccc2)OC(=O)CN(C)C(=O)[C@H]([C@H](C)CC)NC(=O)[C@@H](Cc2ccccc2)OC(=O)CN(C)C1=O	–	human plasma	2 h, 37 °C	–	remaining compound	100%

A few entries again:
Molecule	assay	system	conditions	scale	endpoint	result
CC(C)OC(=O)[C@H](CCC(=O)C=[N+]=[N-])NC(=O)OC(OC(=O)C(C)(C)C)C(C)C (mixture of isomers)	–	mouse plasma	10 µM, 60 min, 37 °C	–	remaining compound	0%
CCc1cccc(C)c1N(C(=O)CCl)C(C)COC (stereo not shown)	LC-MS/MS	herbicide solution	2 h, 4 °C, together with: 365 nm UV exposure	–	remaining amount	35.4 ± 17.7%
